Experimental data from different studies.
Each line is one published result; not all experiments were run side by side. ± marks the error that the study gave.

O=c1c(-c2ccc(O)cc2)coc2cc(O)ccc12  Cmax (healthy volunteers, urine; oral, dose not given, pharmaceutical preparations): 228 ± 5.34 ng/mL
COc1c(OCCCN2CCOCC2)ccc2c1N=C(NC(=O)c1cnc(N)nc1)N1CCN=C21  Cmax (LC-MS/MS; patients with solid tumours, expansion cohort, plasma; intravenous, 0.8 mg/kg, cycle 1 day 1, geometric mean): 537 ng/mL
N[C@@H](CC(=O)N1CCn2c(nnc2C(F)(F)F)C1)Cc1cc(F)c(F)cc1F  Cmax (healthy Korean subjects, plasma; oral, 100 mg single dose, ABCB1 G2677T/A GA+GT): 468 ± 141 ng/mL
CC(C)(Sc1ccncc1-c1ccc(C#N)c2ccccc12)C(=O)O  Cmax (non-Asian male subjects, plasma; oral, 10 mg, single dose, fasted, geometric least squares mean): 11 ng/mL
CC(C)=CCC[C@](C)(O[C@@H]1O[C@H](CO)[C@@H](O)[C@H](O)[C@H]1O)[C@H]1CC[C@]2(C)[C@@H]1[C@H](O)C[C@@H]1[C@@]3(C)CC[C@H](O[C@@H]4O[C@H](CO)[C@@H](O)[C@H](O)[C@H]4O)C(C)(C)[C@@H]3CC[C@]12C  Cmax (LC-MS/MS; healthy female volunteers, serum; oral, 3 g fermented red ginseng): 2.01 ± 1.14 ng/mL
Cc1ccnc2c1NC(=O)c1cccnc1N2C1CC1  Cmax (olive baboon (Papio anubis), female, non-pregnant, serum; oral, 800 mg, tablet, single dose): 909 ± 657 ng/mL
O=C1CCc2ccc(OCCCCN3CCN(c4cccc(Cl)c4Cl)CC3)cc2N1  Cmax (healthy Japanese men, CYP2D6 EM, plasma; oral, 3 mg aripiprazole single, with: fluvoxamine 100 mg/day): 20.5 ± 4 ng/mL
CCC[C@H](N[C@@H](C)C(=O)N1[C@H](C(=O)O)C[C@@H]2CCCC[C@@H]21)C(=O)OCC  Cmax (healthy Chinese volunteers, plasma; oral, 4 mg, fasting, with: indapamide 1.25 mg): 48 ± 16.2 ng/mL
C=C(C)[C@@H]1CC[C@]2(NCCN3CCS(=O)(=O)CC3)CC[C@]3(C)[C@H](CC[C@@H]4[C@@]5(C)CC=C(C6=CC[C@@](CF)(C(=O)O)CC6)C(C)(C)[C@@H]5CC[C@]43C)[C@@H]12  Cmax (HIV-1-positive treatment-naive adults, plasma; oral, 40 mg single dose, day 1, with food): 230 ng/mL
O=C(CCCCCCC(=O)Nc1ccccc1)NO  Cmax (patients, serum; oral, 600 mg, cycle 1 day 2, with: flavopiridol 30+30 mg/m2): 4870 nM
CC(C(=O)O)c1ccc(-c2ccccc2)c(F)c1 (stereo not shown)  Cmax (HPLC; rabbit, plasma; oral, 2.58 mg/kg, single dose): 37300 ± 730 ng/mL
C[C@]12C=CC(=O)C=C1CC[C@@H]1[C@@H]2[C@@H](O)C[C@@]2(C)[C@H]1C[C@H]1O[C@@H](C3CCCCC3)O[C@]12C(=O)CO  Cmax (children with asthma, serum; inhaled, 160 µg ciclesonide, day 7, HFA-MDI without spacer, steady state): 0.141 ± 0.013 ng/mL
Cc1nc(-c2ccc(OCC(C)C)c(C#N)c2)sc1C(=O)O  Cmax (healthy Chinese adults, plasma; oral, 80 mg single dose, fasting): 4330 ± 1250 ng/mL
Cc1ccc(Sc2ccccc2N2CCNCC2)c(C)c1  Cmax (healthy women, plasma; oral, 5 mg once daily, fed, day 1): 2.7 ng/mL
Cn1cnc2c(F)c(Nc3ccc(Br)cc3Cl)c(C(=O)NOCCO)cc21  Cmax (healthy subjects, plasma; oral, 50 mg single dose, LS mean): 863 ng/mL
CCCC[C@H](NC(C)=O)C(=O)N[C@H]1CCC(=O)NC[C@@H](C(=O)N[C@@H](Cc2c[nH]c3ccccc23)C(N)=O)NC(=O)[C@H](CCCNC(=N)N)NC(=O)[C@@H](Cc2ccccc2)NC(=O)[C@H](Cc2c[nH]cn2)NC1=O  Cmax (healthy volunteers, plasma; subcutaneous, 1.0 mg once daily, day 7, steady state mean): 20.9 ng/mL
COc1cc2c3c(n(CCCN4CCOCC4)c(=O)c2cc1OC)-c1cc2c(cc1C3=O)OCO2  Cmax (patients, plasma; intravenous infusion, 20 mg/m^2 daily over 1 h, cycle 1 day 4): 583 ng/mL
N[C@]1(C(=O)O)[C@H]2[C@@H](C[C@@H]1F)[C@@H]2C(=O)O  Cmax (healthy subjects, both sexes, plasma; oral, 10 mg TS-134 single dose, fed, mean): 34 ng/mL
CC(=O)N[C@H](CSSC[C@H](N)C(=O)O)C(=O)N[C@H](C)C(=O)N[C@H](CCCNC(=N)N)C(=O)N[C@H](CCCNC(=N)N)C(=O)N[C@H](CCCNC(=N)N)C(=O)N[C@H](C)C(=O)N[C@H](CCCNC(=N)N)C(N)=O  Cmax (Japanese hemodialysis patients, SHPT, plasma; intravenous, 2.5 mg 3 times weekly, 4 weeks, day 27, after last dose): 168 ± 24 ng/mL
O=C1Nc2c(C(=O)O)ccnc2N(C2CC2)c2ncccc21  Cmax (olive baboon (Papio anubis), non-pregnant, serum; oral, 10 mg/kg of nevirapine, solution, single dose): 214 ± 50.6 ng/mL
NC(=O)c1cnc2[nH]ccc2c1N[C@@H]1[C@@H]2CC3C[C@H]1C[C@@](O)(C3)C2  Cmax (healthy Japanese men, plasma; oral, 200 mg, single dose fasted): 649 ng/mL
COc1ccc2c3c1O[C@H]1C[C@@H](OC(=O)c4ccccc4)C=C[C@@]31CCN(C)C2  Cmax (healthy elderly men, plasma; intranasal, 33 mg, single dose): 58.5 ng/mL
CC1=C2C[C@H]3[C@@H](CC[C@@H]4C[C@H](NS(C)(=O)=O)CC[C@@]43C)[C@@H]2CC[C@@]2(C1)O[C@@H]1C[C@H](C)CN[C@H]1[C@H]2C  Cmax (patients, plasma; oral, 180 mg daily, day 22, cycle 1): 644 ng/mL
COc1cc(OC)c(/C=C/S(=O)(=O)Cc2ccc(OC)c(NCC(=O)O)c2)c(OC)c1  Cmax (cancer patients, phase I, plasma; oral, 700 mg twice daily, day 1 cycle 1): 5930 ± 4740 ng/mL
CC(=O)Nc1ccc(O[C@@H]2O[C@H](C(=O)O)[C@@H](O)[C@H](O)[C@H]2O)cc1  Cmax (healthy volunteers, both sexes, plasma; oral, 650 mg acetaminophen, day 6, with: favipiravir 800 mg, extended): 16900 ng/mL
CO[C@H]1C[C@@H]2CC[C@@H](C)[C@@](O)(O2)C(=O)C(=O)N2CCCC[C@H]2C(=O)O[C@H]([C@H](C)C[C@@H]2CC[C@@H](OP(C)(C)=O)[C@H](OC)C2)CC(=O)[C@H](C)/C=C(\C)[C@@H](O)[C@@H](OC)C(=O)[C@H](C)C[C@H](C)/C=C/C=C/C=C/1C  Cmax (HPLC-MS/MS; Japanese patients, whole blood; oral, 20 mg, day 26, cycle 1, geometric mean): 155 ng/mL
Nc1nnc(CN[C@@H]2C[C@H]2c2ccc(OCc3ccccc3)cc2)o1  Cmax (healthy young adults; oral, 1.0 mg/day, day 1, multiple dose, mean): 6.83 ng/mL
Nc1nc(NC2CC2)c2ncn([C@H]3C=C[C@@H](CO)C3)c2n1  Cmax (HIV-infected children and adolescents, plasma; oral, 8 mg/kg): 3500 ng/mL
C[C@H]1CN(C(=O)CC#N)[C@]12CCN(c1ncnc3[nH]ccc13)C2  Cmax (atopic dermatitis patients, plasma; topical, 5 g of 3% ointment twice daily, day 1): 3.75 ± 1.78 ng/mL
C[C@@H](O)[C@H]1C(=O)N2C(C(=O)O)=C(S[C@@H]3CN[C@H](C(=O)N(C)C)C3)[C@H](C)[C@H]12  Cmax (microdialysis; pig (Danish Landrace), subcutaneous adipose tissue; iv infusion, 1000 mg over 10 min, with: vancomycin co-administered): 22000 ng/mL
CC(C)(Sc1ccncc1-c1ccc(C#N)c2ccccc12)C(=O)O  Cmax (healthy men, plasma; oral, 10 mg once daily, day 14, geometric mean, with: febuxostat 40 mg): 14.1 ng/mL
CN1CC[C@H](c2c(O)cc(O)c3c(=O)cc(-c4ccccc4Cl)oc23)[C@H](O)C1  Cmax (patients with advanced solid tumours, plasma; intravenous infusion, 70 to 80 mg/m^2, with: FOLFOX): 1950 nM
C[C@@H](N)c1cc(Cl)ccc1Cn1c(=S)[nH]c(=O)c2[nH]ccc21  Cmax (healthy Japanese volunteers, plasma; oral, 2.5 mg once daily, day 1, geometric mean): 8.43 nM
COc1ccc(-n2nc(C(N)=O)c3c2C(=O)N(c2ccc(N4CCCCC4=O)cc2)CC3)cc1  Cmax (healthy Chinese subjects; oral, 10 mg twice daily, day 9): 336 ng/mL
Cc1ccc(NC(=O)c2ccc(CN3CCN(C)CC3)cc2)cc1Nc1nccc(-c2cncc(-c3oncc3C)c2)n1  Cmax (healthy volunteers, plasma; oral, 200 mg once daily, day 1, 7-day dosing, mean): 6490 ng/mL
Cc1cc(Nc2cc3ncccc3c(N[C@@H]3C[C@H]4CC[C@@H](C3)N4CCC#N)n2)n[nH]1  Cmax (pregnant rabbit, maternal plasma; oral, 30 mg/kg/day, gestation day 19): 311 ng/mL
COc1cccc(N2CCN(C3=Nc4c(F)cccc4[C@H](CC(=O)O)N3c3cc(C(F)(F)F)ccc3OC)CC2)c1  Cmax (UHPLC-MS/MS; healthy women, plasma; intravenous infusion, 960 mg single dose, 60 min infusion, HPβCD formulation): 57200 ± 7620 ng/mL

Excerpt of the above:
CC(C)(Sc1ccncc1-c1ccc(C#N)c2ccccc12)C(=O)O  Cmax (non-Asian male subjects, plasma; oral, 10 mg, single dose, fasted, geometric least squares mean): 11 ng/mL
COc1cc(OC)c(/C=C/S(=O)(=O)Cc2ccc(OC)c(NCC(=O)O)c2)c(OC)c1  Cmax (cancer patients, phase I, plasma; oral, 700 mg twice daily, day 1 cycle 1): 5930 ± 4740 ng/mL
